{"data": "Measurements collected from several papers", "U2AF2": "U2AF2 148-342 (Homo sapiens, UniProt P26368)", "B1": "ZBTB9 17-148 (Homo sapiens, UniProt Q96C00); sequence looked up; chain NPAPRTIQIEFPQHSSSLLESLNRHRLEGKFCDVSLLVQGRELRAHKAVLAAASPYFHDKLLLGDAPRLTLPSVIEADAFEGLLQLIYSGRLRLPLDALPAHLLVASGLQMWQVVDQCSEILRELETSGGGI", "B2": "MIR1 S285A (Saccharomyces cerevisiae, UniProt P23641); sequence looked up; chain MSVSAAPAIPQYSVSDYMKFALAGAIGCGSTHSSMVPIDVVKTRIQLEPTVYNKGMVGSFKQIIAGEGAGALLTGFGPTLLGYSIQGAFKFGGYEVFKKFFIDNLGYDTASRYKNSVYMGSAAMAEFLADIALCPLEATRIRLVSQPQFANGLVGGFSRILKEEGIGSFYSGFTPILFKQIPYNIAKFLVFERASEFYYGFAGPKEKLSSTSTTLLNLLSGLTAGLAAAIVSQPADTLLSKVNKTKKAPGQSTVGLLAQLAKQLGFFGSFAGLPTRLVMVGTLTALQFGIYGSLKSTLGCPPTIEIGGGGH", "B3": "IL2 mature E62A (Bos taurus, UniProt P05016); sequence looked up; chain APTSSSTGNTMKEVKSLLLDLQLLLEKVKNPENLKLSRMHTFDFYVPKVNATELKHLKCLLAELKLLEEVLNLAPSKNLNPREIKDSMDNIKRIVLELQGSETRFTCEYDDATVNAVEFLNKWITFCQSIYSTMT", "B4": "Rela 19-304 (Mus musculus, UniProt Q04207); sequence looked up; chain PYVEIIEQPKQRGMRFRYKCEGRSAGSIPGERSTDTTKTHPTIKINGYTGPGTVRISLVTKDPPHRPHPHELVGKDCRDGYYEADLCPDRSIHSFQNLGIQCVKKRDLEQAISQRIQTNNNPFHVPIEEQRGDYDLNAVRLCFQVTVRDPAGRPLLLTPVLSHPIFDNRAPNTAELKICRVNRNSGSCLGGDEIFLLCDKVQKEDIEVYFTGPGWEARGSFSQADVHRQVAIVFRTPPYADPSLQAPVRVSMQLRRPSDRELSEPMEFQYLPDTDDRHRIEEKRKR", "B5": "SPOP R70Q (Homo sapiens, UniProt O43791); sequence looked up; chain MSRVPSPPPPAEMSSGPVAESWCYTQIKVVKFSYMWTINNFSFCREEMGEVIKSSTFSSGANDKLKWCLQVNPKGLDEESKDYLSLYLLLVSCPKSEVRAKFKFSILNAKGEETKAMESQRAYRFVQGKDWGFKKFIRRDFLLDEANGLLPDDKLTLFCEVSVVQDSVNISGQNTMNMVKVPECRLADELGGLWENSRFTDCCLCVAGQEFQAHKAILAARSPVFSAMFEHEMEESKKNRVEINDVEPEVFKEMMCFIYTGKAPNLDKMADDLLAAADKYALERLKVMCEDALCSNLSVENAAEILILADLHSADQLKTQAVDFINYHASDVLETSGWKSMVVSHPHLVAEAYRSLASAQCPFLGPPRKRLKQS", "B6": "spnC 913-1471 (Saccharopolyspora spinosa, UniProt Q9ALM4); sequence looked up; chain AASDEARAVSDPAAGWFWQAVARQDLKSVSDALDLDADAPLSATLPALSVWHRQERERVLADGWRYRVDWVRVAPQPVRRTRETWLLVVPPGGIEEALVERLTDALNTRGISTLRLDVPPAATSGELATELRAAADGDPVKAILSLTALDERPHPECKDVPSGIALLLNLVKALGEADLRIPLWTITRGAVKAGPADRLLRPMQAQAWGLGRVAALEHPERWGGLIDLPDSLDGDVLTRLGEALTNGLAEDQLAIRQSGVLARRLVPAPANQPAGRKWRPRGSALITGGLGAVGAQVARWLAEIGAERIVLTSRRGNQAAGAAELEAELRALGAQVSIVACDVTDRAEMSALLAEFDVTAVFHAAGVGRLLPLAETDQNGLAEICAAKVRGAQVLDELCDSTDLDAFVLFSSGAGVWGGGGQGAYGAANAFLDTLAEQRRARGLPATSISWGSWAGGGMADGAAGEHLRRRGIRPMPAASAILALQEVLDQDETCVSIADVDWDRFVPTFAATRATRLFDEVPAARKAMPANGPAEPGGSPFARNLAELPEAQRRHELV", "B7": "TAF15 7-99 del82-96 (Homo sapiens, UniProt Q92804); sequence looked up; chain YGQSGGEQQSYSTYGNPGSQGYGQASQSYSGYGQTTDSSYGQNYSGYSSYGQSQSGYSQSYGGYENQKQSSYSQQSQG", "B8": "human hexokinase-1; sequence looked up; chain MIAAQLLAYYFTELKDDQVKKIDKYLYAMRLSDETLIDIMTRFRKEMKNGLSRDFNPTATVKMLPTFVRSIPDGSEKGDFIALDLGGSSFRILRVQVNHEKNQNVHMESEVYDTPENIVHGSGSQLFDHVAECLGDFMEKRKIKDKKLPVGFTFSFPCQQSKIDEAILITWTKRFKASGVEGADVVKLLNKAIKKRGDYDANIVAVVNDTVGTMMTCGYDDQHCEVGLIIGTGTNACYMEELRHIDLVEGDEGRMCINTEWGAFGDDGSLEDIRTEFDREIDRGSLNPGKQLFEKMVSGMYLGELVRLILVKMAKEGLLFEGRITPELLTRGKFNTSDVSAIEKNKEGLHNAKEILTRLGVEPSDDDCVSVQHVCTIVSFRSANLVAATLGAILNRLRDNKGTPRLRTTVGVDGSLYKTHPQYSRRFHKTLRRLVPDSDVRFLLSESGSGKGAAMVTAVAYRLAEQHRQIEETLAHFHLTKDMLLEVKKRMRAEMELGLRKQTHNNAVVKMLPSFVRRTPDGTENGDFLALDLGGTNFRVLLVKIRSGKKRTVEMHNKIYAIPIEIMQGTGEELFDHIVSCISDFLDYMGIKGPRMPLGFTFSFPCQQTSLDAGILITWTKGFKATDCVGHDVVTLLRDAIKRREEFDLDVVAVVNDTVGTMMTCAYEEPTCEVGLIVGTGSNACYMEEMKNVEMVEGDQGQMCINMEWGAFGDNGCLDDIRTHYDRLVDEYSLNAGKQRYEKMISGMYLGEIVRNILIDFTKKGFLFRGQISETLKTRGIFETKFLSQIESDRLALLQVRAILQQLGLNSTCDDSILVKTVCGVVSRRAAQLCGAGMAAVVDKIRENRGLDRLNVTVGVDGTLYKLHPHFSRIMHQTVKELSPKCNVSFLLSEDGSGKGAALITAVGVRLRTEASS", "B9": "dlg1 1-97 F41A (Drosophila melanogaster, UniProt P31007); sequence looked up; chain MPVKKQEAHRALELLEDYHARLSEPQDRALRIAIERVIRIAKSRLFQALLDIQEFYELTLLDDSKSIQQKTAETLQIATKWEKDGQAVKIADFIKSS", "note": "Lines come from different studies, so protocols differ. pKd: −log10 of the molar value.", "sequence of UniProt P26368 (whole entry, unmodified, looked up)": "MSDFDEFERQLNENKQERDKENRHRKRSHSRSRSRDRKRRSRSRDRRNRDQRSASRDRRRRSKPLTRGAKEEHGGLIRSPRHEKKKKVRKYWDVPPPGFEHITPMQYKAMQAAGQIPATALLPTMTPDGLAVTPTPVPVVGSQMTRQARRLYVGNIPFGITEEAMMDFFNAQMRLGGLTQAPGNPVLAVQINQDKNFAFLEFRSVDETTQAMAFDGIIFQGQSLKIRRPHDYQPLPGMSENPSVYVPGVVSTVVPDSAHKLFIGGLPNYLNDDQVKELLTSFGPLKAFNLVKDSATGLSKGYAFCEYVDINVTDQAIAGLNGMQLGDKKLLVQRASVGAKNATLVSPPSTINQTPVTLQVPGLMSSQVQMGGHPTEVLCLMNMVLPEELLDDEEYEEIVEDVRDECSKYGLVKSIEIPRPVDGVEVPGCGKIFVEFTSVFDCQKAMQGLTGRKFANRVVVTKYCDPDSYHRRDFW", "sequence of UniProt Q9NRZ9 (whole entry, looked up)": "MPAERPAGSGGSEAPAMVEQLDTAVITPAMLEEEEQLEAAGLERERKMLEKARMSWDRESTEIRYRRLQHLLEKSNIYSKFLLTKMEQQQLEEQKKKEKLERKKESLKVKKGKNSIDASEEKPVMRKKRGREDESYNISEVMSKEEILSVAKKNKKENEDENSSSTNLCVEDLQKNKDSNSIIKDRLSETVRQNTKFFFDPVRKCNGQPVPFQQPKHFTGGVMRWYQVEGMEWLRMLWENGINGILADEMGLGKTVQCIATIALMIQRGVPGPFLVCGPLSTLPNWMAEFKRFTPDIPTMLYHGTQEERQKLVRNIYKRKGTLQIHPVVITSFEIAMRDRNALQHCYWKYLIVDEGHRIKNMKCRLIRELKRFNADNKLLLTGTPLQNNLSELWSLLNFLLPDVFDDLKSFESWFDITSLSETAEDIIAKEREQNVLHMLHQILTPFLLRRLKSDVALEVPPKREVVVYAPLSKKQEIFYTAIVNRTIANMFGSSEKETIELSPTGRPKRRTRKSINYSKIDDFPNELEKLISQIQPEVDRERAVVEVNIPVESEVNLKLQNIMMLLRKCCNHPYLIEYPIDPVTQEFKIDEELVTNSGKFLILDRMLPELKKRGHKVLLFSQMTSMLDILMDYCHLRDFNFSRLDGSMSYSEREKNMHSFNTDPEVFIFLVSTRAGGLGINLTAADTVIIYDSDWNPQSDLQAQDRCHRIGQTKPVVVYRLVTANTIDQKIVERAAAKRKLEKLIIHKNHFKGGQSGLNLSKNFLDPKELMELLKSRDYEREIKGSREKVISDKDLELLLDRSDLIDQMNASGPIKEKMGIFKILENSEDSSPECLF"}
{"Molecule": "B1 (ZBTB9 17-148)", "target or system": "itself", "assay": "negative-stain electron microscopy", "measurement": "binding", "result": "binds"}
{"Molecule": "B2 (MIR1 S285A)", "target or system": "itself", "assay": "pull-down", "measurement": "binding", "result": "binds"}
{"Molecule": "bfr (Azotobacter vinelandii, UniProt P22759)", "target or system": "itself", "assay": "cryo-EM", "measurement": "binding", "result": "binds"}
{"Molecule": "B3 (IL2 mature E62A)", "target or system": "itself", "assay": "SDS-PAGE", "measurement": "binding", "result": "binds"}
{"Molecule": "CUGGUUUCA (ssRNA)", "target or system": "U2AF2", "assay": "sequencing of bound RNA", "test system": "RNA", "setting": "motif only", "measurement": "pKd", "result": 5.78}
{"Molecule": "B4 (Rela 19-304)", "target or system": "itself", "assay": "X-ray crystallography", "measurement": "binding", "result": "binds"}
{"Molecule": "B5 (SPOP R70Q)", "target or system": "itself", "assay": "negative-stain TEM", "measurement": "binding", "result": "binds"}
{"Molecule": "B6 (spnC 913-1471)", "target or system": "itself", "assay": "crystal structure", "setting": "together with: NADP+", "measurement": "binding", "result": "binds"}
{"Molecule": "B7 (TAF15 7-99 del82-96)", "target or system": "itself", "assay": "ThT fluorescence, negative-stain TEM", "setting": "peptide", "measurement": "binding", "result": "binds"}
{"Molecule": "B8 (human hexokinase-1)", "target or system": "CYB5R4 knockout human cells", "assay": "PP4 interaction, 3xFLAG-PP4C IP-MS", "setting": "concentration not given", "scale": "reference: CYB5R4 KO over parental", "measurement": "log2 fold change", "result": 0.45}
{"Molecule": "HELLS (Homo sapiens, UniProt Q9NRZ9)", "target or system": "itself", "assay": "SEC", "measurement": "binding", "result": "binds"}
{"Molecule": "B9 (dlg1 1-97 F41A)", "target or system": "itself", "assay": "SEC", "measurement": "binding", "result": "binds"}
{"Molecule": "GCUAAGACU (ssRNA)", "target or system": "U2AF2", "assay": "sequencing of bound RNA", "test system": "RNA", "setting": "motif only", "measurement": "pKd", "result": 5.31}
{"Molecule": "PARP4, human", "target or system": "CYB5R4 knockout human cells", "assay": "PP4 interaction, 3xFLAG-PP4C IP-MS", "setting": "concentration not given", "scale": "reference: CYB5R4 KO over parental", "measurement": "log2 fold change", "result": -2.39}
{"note": "Some of these lines once more:"}
{"Molecule": "CUGGUUUCA (ssRNA)", "target or system": "U2AF2", "assay": "sequencing of bound RNA", "test system": "RNA", "setting": "motif only", "measurement": "pKd", "result": 5.78}
